Published values gathered from unrelated publications.
Protocols differ between the studies behind these lines. ± gives the spread as reported.

Structure (SMILES)	method	species	matrix	route	dose	time	tissue uptake
O=C(O)C1CN(Cc2ccc(-c3noc(-c4ccc(OCC[18F])c(C(F)(F)F)c4)n3)cc2)C1		male Sprague-Dawley rat	muscle	intravenous		120 min	0.135 ± 0.007 %ID/g
CCCC[C@H](NC(=O)CNC(=O)CNC(=O)CN1CCN(CC(=O)O)CCN(CC(=O)O)CCN(CC(=O)O)CC1)C(=O)N[C@H]1CC(=O)NCCCC[C@@H](C(N)=O)NC(=O)[C@H](Cc2c[nH]c3ccccc23)NC(=O)[C@H](CCCNC(=N)N)NC(=O)[C@@H](Cc2ccccc2)NC(=O)[C@H](Cc2c[nH]cn2)NC1=O [lead-203 labelled]		C57 mouse	muscle	intravenous	0.056 MBq	2 h	0.08 ± 0.08 %ID/g
C[C@H](CN(C)Cc1ccccc1)NC(=O)c1ccc(-c2noc(C(F)(F)[18F])n2)cc1	PET imaging	female Sprague-Dawley rats	muscle	intravenous		30 min	0.59 ± 0.15 SUV
N=C(N)NCCC[C@H](NC(=O)CON=C[C@H](F)[C@@H](O)[C@H](O)[C@H](O)CO)C(=O)NCC(=O)N[C@@H](CC(=O)O)C(=O)O [fluorine-18 labelled]		nude mice U-87 MG tumour	spleen	intravenous		2 h	0.64 ± 0.68 %ID/g
CCCC[C@H](NC(=O)CNC(=O)CNC(=O)CN1CCN(CC(=O)O)CCN(CC(=O)O)CC1)C(=O)N[C@H]1CC(=O)NCCCC[C@@H](C(N)=O)NC(=O)[C@H](Cc2c[nH]c3ccccc23)NC(=O)[C@H](CCCNC(=N)N)NC(=O)[C@@H](Cc2ccccc2)NC(=O)[C@H](Cc2c[nH]cn2)NC1=O [copper-64 labelled]		C57 mouse female B16/F1 melanoma	intestines	intravenous	0.037 MBq	2 h	1.41 ± 0.7 %ID
CCCC[C@@H]1NC(=O)[C@@H](NC(=O)[C@H](CCC(=O)O)NC(=O)CNC(=O)CN2CCN(CC(=O)O)CCN(CC(=O)O)CCN(CC(=O)O)CC2)CCCCNC(=O)C[C@@H](C(N)=O)NC(=O)[C@H](C(C)C)NC(=O)[C@@H]2CCCN2C(=O)[C@H](CCCNC(=N)N)NC(=O)CNC(=O)[C@H](Cc2c[nH]c3ccccc23)NC(=O)[C@H](CCCNC(=N)N)NC(=O)[C@@H](Cc2ccccc2)NC(=O)[C@H](Cc2c[nH]cn2)NC(=O)[C@H](CCC(=O)O)NC1=O [gallium-67 labelled]		C57 mice with B16/F1 melanoma	muscle	intravenous	0.037 MBq	4 h	0.04 ± 0.01 %ID/g
OCc1cn(Cc2ccc(-c3noc(-c4ccc(OCC[18F])c(C(F)(F)F)c4)n3)cc2)nn1		Lewis rat, female	brain	intravenous		0.5 h	0.57 ± 0.02 %ID/g
CCCC[C@H](NC(=O)CNC(=O)CNC(=O)CN1CCN(CC(=O)O)CCN(CC(=O)O)CCN(CC(=O)O)CC1)C(=O)N[C@H]1CC(=O)NCCCC[C@@H](C(N)=O)NC(=O)[C@H](Cc2c[nH]c3ccccc23)NC(=O)[C@H](CCCNC(=N)N)NC(=O)[C@@H](Cc2ccccc2)NC(=O)[C@H](Cc2c[nH]cn2)NC1=O [copper-64 labelled]		C57 mouse B16/F1 melanoma	tumor			4 h	5.25 ± 1.22 %ID/g
CC(C)[C@H](NC(=O)[C@@H]1CCCN1C(=O)[C@H](CCCNC(=N)N)NC(=O)[C@H](CS)NC(=O)[C@H](Cc1c[nH]c2ccccc12)NC(=O)[C@H](CCCNC(=N)N)NC(=O)[C@@H](Cc1ccccc1)NC(=O)[C@H](Cc1c[nH]cn1)NC(=O)[C@H](CCC(=O)O)NC(=O)[C@H](CS)NC(=O)[C@H](CS)NC(=O)CNC(=O)[C@@H]1CC(=O)N[C@@H](CCCNC(=N)N)C(=O)NCC(=O)N[C@@H](CC(=O)O)C(=O)N[C@H](Cc2ccc(O)cc2)C(=O)N1)C(N)=O [technetium-99m labelled]		C57 mouse, female, B16/F1 melanoma	brain	intravenous	0.037 MBq	4 h	0.05 ± 0.03 %ID/g
O=C([O-])CN1CCN(CC(=O)[O-])CCN(CC(=O)NCCc2ccc3c(c2)C2C=CCC2C(c2cc4c(cc2Br)OCO4)N3)CCN(CC(=O)[O-])CC1.[111In+3] (stereo not drawn)		mouse, Hec50 endometrial tumour	small intestine			1 h post injection	19.4 ± 5.22 %ID/g
CC(C)[C@H](NC(=O)[C@@H]1CCCN1C(=O)[C@H](CCCNC(=N)N)NC(=O)[C@H](CS)NC(=O)[C@H](Cc1c[nH]c2ccccc12)NC(=O)[C@H](CCCNC(=N)N)NC(=O)[C@@H](Cc1ccccc1)NC(=O)[C@H](Cc1c[nH]cn1)NC(=O)[C@H](CCC(=O)O)NC(=O)[C@H](CS)NC(=O)[C@H](CS)NC(=O)[C@@H]1CC(=O)N[C@@H](CCCNC(=N)N)C(=O)NCC(=O)N[C@@H](CC(=O)O)C(=O)N[C@H](Cc2ccc(O)cc2)C(=O)N1)C(N)=O [technetium-99m labelled]		C57 mouse, female, B16/F1 melanoma	tumor	intravenous	0.037 MBq	24 h	5.74 ± 1.22 %ID/g
CN(C)c1ccc(-c2nc3ccc(OCCCCCN4CCN5CCN(CC4)CC(=O)[O][Al]([18F])[O]C(=O)C5)cc3s2)cc1		ICR mouse	lung	intravenous		30 min	1.83 ± 0.48 %ID/g
